Assay results pooled from the literature.
Lines come from different studies, so protocols differ. “And” joins repeats or separate records; there may be more than shown. ± marks the error that the study gave.
Beta-lactamase CTX-M-27: Beta-lactamase CTX-M-27 (Escherichia coli, UniProt Q840M4)
Chain of UniProt Q13526 (whole entry, looked up): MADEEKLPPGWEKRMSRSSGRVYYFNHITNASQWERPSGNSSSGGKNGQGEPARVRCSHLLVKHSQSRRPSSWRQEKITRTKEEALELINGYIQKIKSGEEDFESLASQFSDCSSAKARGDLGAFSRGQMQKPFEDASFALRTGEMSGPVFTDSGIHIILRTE
Chain of UniProt Q07741 (whole entry, looked up): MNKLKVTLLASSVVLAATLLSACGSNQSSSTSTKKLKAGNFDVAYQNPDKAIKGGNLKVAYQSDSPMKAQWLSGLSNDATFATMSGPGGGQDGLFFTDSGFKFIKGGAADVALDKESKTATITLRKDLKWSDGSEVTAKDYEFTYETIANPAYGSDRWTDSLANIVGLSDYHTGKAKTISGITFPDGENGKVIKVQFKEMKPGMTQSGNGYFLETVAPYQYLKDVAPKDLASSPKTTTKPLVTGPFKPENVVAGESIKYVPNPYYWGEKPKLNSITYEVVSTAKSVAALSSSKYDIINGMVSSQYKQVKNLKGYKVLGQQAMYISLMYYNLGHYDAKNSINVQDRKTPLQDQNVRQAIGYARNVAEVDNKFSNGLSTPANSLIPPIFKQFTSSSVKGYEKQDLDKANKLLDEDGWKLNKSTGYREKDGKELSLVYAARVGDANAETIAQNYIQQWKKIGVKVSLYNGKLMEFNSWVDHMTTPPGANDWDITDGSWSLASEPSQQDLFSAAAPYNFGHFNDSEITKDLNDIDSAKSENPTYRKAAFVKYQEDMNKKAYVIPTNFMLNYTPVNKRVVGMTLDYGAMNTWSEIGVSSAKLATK
Chain of UniProt Q5VT52 (whole entry, looked up): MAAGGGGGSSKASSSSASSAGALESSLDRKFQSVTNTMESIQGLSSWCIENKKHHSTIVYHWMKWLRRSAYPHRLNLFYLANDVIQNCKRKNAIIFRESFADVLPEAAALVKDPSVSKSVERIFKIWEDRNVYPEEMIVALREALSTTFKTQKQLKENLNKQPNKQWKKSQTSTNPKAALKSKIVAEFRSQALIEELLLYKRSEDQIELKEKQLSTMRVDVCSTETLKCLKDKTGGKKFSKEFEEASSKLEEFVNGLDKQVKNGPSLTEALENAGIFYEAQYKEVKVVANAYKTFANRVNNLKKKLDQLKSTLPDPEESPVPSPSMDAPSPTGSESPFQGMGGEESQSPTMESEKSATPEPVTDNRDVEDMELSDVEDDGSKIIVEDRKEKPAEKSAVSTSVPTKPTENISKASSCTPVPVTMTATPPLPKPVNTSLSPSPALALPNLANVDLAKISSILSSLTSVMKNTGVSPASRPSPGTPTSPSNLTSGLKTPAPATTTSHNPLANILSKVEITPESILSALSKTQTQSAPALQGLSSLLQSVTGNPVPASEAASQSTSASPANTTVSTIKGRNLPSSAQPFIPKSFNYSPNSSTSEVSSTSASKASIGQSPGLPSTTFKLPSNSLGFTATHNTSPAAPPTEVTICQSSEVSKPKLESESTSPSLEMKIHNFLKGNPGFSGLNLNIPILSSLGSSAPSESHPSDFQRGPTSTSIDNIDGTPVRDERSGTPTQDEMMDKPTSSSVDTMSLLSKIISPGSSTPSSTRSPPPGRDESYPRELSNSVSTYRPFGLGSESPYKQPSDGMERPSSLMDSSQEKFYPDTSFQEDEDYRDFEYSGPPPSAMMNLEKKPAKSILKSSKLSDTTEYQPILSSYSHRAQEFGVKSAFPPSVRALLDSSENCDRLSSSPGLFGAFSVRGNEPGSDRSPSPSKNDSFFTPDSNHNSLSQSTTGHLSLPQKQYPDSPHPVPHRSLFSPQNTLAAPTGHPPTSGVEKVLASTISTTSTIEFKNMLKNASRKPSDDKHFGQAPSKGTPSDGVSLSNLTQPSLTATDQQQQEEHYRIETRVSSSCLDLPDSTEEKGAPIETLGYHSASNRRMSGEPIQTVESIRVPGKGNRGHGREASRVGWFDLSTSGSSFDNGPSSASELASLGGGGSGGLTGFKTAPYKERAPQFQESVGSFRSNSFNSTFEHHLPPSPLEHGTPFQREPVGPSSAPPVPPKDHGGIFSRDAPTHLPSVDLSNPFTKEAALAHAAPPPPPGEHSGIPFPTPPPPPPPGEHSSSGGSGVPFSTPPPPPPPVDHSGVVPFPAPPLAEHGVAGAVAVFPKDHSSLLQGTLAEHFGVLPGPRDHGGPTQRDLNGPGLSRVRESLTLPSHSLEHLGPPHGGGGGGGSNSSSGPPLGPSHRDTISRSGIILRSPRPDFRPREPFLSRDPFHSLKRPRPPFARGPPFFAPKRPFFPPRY
Chain of UniProt P09619 (whole entry, unmodified, looked up): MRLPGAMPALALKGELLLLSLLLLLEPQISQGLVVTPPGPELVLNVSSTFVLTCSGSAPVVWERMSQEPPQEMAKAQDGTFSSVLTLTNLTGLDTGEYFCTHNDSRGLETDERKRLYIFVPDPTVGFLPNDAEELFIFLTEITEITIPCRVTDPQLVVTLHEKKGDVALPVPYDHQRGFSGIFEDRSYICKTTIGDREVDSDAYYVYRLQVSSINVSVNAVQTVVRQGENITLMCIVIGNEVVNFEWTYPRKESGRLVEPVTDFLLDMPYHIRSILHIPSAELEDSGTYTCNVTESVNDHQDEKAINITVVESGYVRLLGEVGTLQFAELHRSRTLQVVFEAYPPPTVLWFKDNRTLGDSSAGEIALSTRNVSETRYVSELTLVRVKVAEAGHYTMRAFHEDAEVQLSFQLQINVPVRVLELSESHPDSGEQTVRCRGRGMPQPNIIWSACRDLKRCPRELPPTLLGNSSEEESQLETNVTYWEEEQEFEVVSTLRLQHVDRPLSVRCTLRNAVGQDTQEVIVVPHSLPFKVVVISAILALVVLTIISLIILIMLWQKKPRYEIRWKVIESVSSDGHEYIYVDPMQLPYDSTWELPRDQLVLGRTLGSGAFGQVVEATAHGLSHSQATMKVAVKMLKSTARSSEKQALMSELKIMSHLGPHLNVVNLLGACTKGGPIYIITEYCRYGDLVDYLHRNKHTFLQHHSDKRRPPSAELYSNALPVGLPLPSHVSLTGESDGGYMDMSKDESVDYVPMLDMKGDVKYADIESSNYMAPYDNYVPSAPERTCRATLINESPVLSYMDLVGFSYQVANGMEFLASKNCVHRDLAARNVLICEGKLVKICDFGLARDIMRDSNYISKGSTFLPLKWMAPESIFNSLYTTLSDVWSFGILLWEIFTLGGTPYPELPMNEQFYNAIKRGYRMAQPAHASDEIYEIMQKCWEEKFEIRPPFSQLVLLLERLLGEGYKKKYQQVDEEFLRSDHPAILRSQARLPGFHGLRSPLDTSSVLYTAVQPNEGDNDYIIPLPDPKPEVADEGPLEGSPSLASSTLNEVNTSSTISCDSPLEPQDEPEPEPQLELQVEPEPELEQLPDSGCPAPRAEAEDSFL
Chain of UniProt Q8JGN5 (whole entry, looked up): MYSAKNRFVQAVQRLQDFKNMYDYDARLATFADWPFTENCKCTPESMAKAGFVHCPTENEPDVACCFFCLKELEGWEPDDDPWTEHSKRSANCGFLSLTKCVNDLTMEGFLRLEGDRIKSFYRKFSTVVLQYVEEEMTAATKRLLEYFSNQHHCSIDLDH
Chain of UniProt P18031 (whole entry, looked up): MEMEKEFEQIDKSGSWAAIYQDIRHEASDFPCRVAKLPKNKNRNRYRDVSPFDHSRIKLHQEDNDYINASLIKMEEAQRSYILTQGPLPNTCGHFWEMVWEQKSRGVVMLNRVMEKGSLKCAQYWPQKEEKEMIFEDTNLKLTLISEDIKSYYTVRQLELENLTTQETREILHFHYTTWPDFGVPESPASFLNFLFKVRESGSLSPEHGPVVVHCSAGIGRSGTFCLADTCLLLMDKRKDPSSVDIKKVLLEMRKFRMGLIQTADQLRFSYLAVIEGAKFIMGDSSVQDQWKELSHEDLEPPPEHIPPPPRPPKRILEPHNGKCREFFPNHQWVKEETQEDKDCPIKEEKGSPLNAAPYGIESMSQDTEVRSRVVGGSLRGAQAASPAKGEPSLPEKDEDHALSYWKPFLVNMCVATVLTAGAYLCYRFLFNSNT
Chain of UniProt P02679 (whole entry, unmodified, looked up): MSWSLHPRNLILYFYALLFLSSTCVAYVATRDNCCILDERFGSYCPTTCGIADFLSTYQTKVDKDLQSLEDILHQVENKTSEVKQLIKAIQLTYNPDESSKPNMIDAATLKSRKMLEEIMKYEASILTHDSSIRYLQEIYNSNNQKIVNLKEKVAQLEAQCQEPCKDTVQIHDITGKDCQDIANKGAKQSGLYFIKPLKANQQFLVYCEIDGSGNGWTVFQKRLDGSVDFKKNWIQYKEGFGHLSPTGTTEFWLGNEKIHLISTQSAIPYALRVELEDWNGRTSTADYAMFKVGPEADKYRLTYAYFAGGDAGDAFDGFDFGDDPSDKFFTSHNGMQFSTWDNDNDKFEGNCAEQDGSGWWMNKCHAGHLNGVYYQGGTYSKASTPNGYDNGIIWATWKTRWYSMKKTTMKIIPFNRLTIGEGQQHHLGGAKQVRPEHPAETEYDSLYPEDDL
Chain of UniProt P10415 (whole entry, unmodified, looked up): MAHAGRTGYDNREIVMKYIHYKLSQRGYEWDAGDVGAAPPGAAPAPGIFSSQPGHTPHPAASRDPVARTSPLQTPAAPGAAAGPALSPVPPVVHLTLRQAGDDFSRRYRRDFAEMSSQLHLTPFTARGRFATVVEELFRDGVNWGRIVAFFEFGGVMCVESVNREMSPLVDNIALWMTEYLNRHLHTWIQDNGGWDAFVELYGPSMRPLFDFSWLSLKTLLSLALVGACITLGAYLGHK
Chain of UniProt B9K712 (whole entry, unmodified, looked up): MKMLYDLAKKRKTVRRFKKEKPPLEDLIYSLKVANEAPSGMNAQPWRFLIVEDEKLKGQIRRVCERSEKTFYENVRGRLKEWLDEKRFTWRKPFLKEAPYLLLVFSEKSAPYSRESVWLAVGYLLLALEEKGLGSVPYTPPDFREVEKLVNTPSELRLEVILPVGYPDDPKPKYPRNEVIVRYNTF

| SMILES | target | test | conditions | Kd |
| --- | --- | --- | --- | --- |
| COC(=O)[C@H](Cc1ccccc1)NC(=O)[C@@H]1CCCN1C(=O)CNC(=O)[C@H](C)NC(C)=O | PIN1 (Homo sapiens, UniProt Q13526) | binding | pH 7.4 | 6.09 µM and ~6 µM |
| N=C(N)NCCC[C@H](NC(=O)[C@H](Cc1ccccc1)NC(=O)[C@@H]1CCCN1C(=O)[C@H](CO)NC(=O)[C@H](Cc1ccccc1)NC(=O)CNC(=O)[C@@H]1CCCN1C(=O)[C@@H]1CCCN1C(=O)[C@@H](N)CCCNC(=N)N)C(=O)N[C@@H](CCCCNS(=O)(=O)c1ccc(C2=c3cc4c5c(c3Oc3c2cc2c6c3CCCN6CCC2)CCC[N+]=5CCC4)c(S(=O)(=O)[O-])c1)C(=O)O | Oligopeptide-binding protein OppA (oppA, Lactococcus lactis subsp. lactis, UniProt Q07741) | binding, fluorescence anisotropy | pH 8, 24 °C, together with: dye-labelled peptide | 20 ± 1 µM |
| CC(=O)N[C@H]1CCCCn2cc3ccccc3c2SC[C@@H](C(N)=O)NC(=O)[C@H](CCCNC(=N)N)NC(=O)[C@H](C)NC(=O)[C@H](Cc2c[nH]c3ccccc23)NC(=O)[C@H](Cc2c[nH]cn2)NC(=O)[C@H](CC(C)C)NC(=O)[C@H](Cc2ccccc2)NC(=O)[C@H](CC(C)C)NC1=O | PTPN1 (Homo sapiens, UniProt P18031) | binding, BLI | – | 81 µM |
| O=C(Nc1cccc(-c2nn[nH]n2)c1)c1cc(-n2cnnn2)cc(C(F)(F)F)c1 | Beta-lactamase CTX-M-27 | surface plasmon resonance | 25 °C | 7.24 ± 0.06 µM |
| CC[C@H](C)[C@H](NC(=O)[C@H](CCCCN)NC(=O)[C@@H](NC(=O)[C@@H](NC(=O)[C@H](C)NC(=O)[C@@H]1CCCN1C(=O)[C@H](CC(C)C)NC(=O)[C@H](Cc1c[nH]c2ccccc12)NC(=O)[C@@H](NC(C)=O)[C@@H](C)O)C(C)C)[C@@H](C)CC)C(=O)N[C@@H](CCC(N)=O)C(=O)N[C@@H](C)C(=O)N[C@@H](Cc1c[nH]cn1)C(=O)N[C@@H](Cc1c[nH]c2ccccc12)C(=O)N[C@@H](CCCNC(=N)N)C(=O)NCC(=O)N[C@@H](Cc1ccc(O)cc1)C(=O)N[C@@H](CCCNC(=N)N)C(=O)N[C@@H](CCC(N)=O)C(=O)N[C@@H](CCCNC(=N)N)C(=O)N[C@@H](CCCCN)C(=O)N[C@H](C(=O)N[C@@H](Cc1ccc(O)cc1)C(=O)N[C@@H](CC(C)C)C(N)=O)[C@@H](C)CC | Calmodulin-1 (CALM1, Homo sapiens, UniProt P0DP23) | binding, native gel titration | 1 h, 22 °C, together with: Ca2+, calmodulin 35 µM | 27 ± 4 µM |
| C[C@@H](O)[C@H](NC(=O)[C@@H]1CCCN1C(=O)[C@H](CO)NC(=O)[C@H](Cc1ccc(O)cc1)NC(=O)[C@H](CO)NC(=O)[C@@H]1CCCN1C(=O)[C@H](COP(=O)(O)O)NC(=O)[C@@H](NC(=O)[C@@H]1CCCN1C(=O)[C@H](CO)NC(=O)[C@H](Cc1ccc(O)cc1)NC(=O)[C@H](CO)NC(=O)[C@@H]1CCCN1C(=O)[C@@H](N)CO)[C@@H](C)O)C(=O)N[C@@H](COP(=O)(O)O)C(=O)N1CCC[C@H]1C(=O)N[C@@H](CO)C(=O)N[C@@H](Cc1ccc(O)cc1)C(=O)N[C@@H](CO)C(=O)O | Regulation of nuclear pre-mRNA domain-containing protein 2 (Homo sapiens, UniProt Q5VT52) | binding, ITC | pH 7.5 | > 1000 µM |
| N[C@@H](Cc1ccc(O)c(I)c1)C(=O)O | Iodotyrosine deiodinase (IYD, Thermotoga neapolitana, UniProt B9K712, Y112A) | FMN fluorescence quenching | 25 °C, Y112A variant | 0.03 ± 0.02 µM |
| C[C@H](N)C(=O)N[C@@H](CCCNC(=N)N)C(=O)N[C@H](C(=O)N[C@@H](CCCCN)C(=O)N[C@@H](CCC(N)=O)C(=O)N[C@H](C(=O)N[C@@H](C)C(=O)N[C@@H](CCCNC(=N)N)C(=O)N[C@@H](CCCCN)C(=O)N[C@@H](CO)C(=O)N[C@H](C(=O)NCC(=O)O)[C@@H](C)O)[C@@H](C)O)[C@@H](C)OP(=O)(O)O | Baculoviral IAP repeat-containing protein 5.1-A (birc5.1-a, Xenopus laevis, UniProt Q8JGN5) | ITC | pH 7.2, 25 °C | 6.47 ± 0.47 µM |
| CC(=O)NCCCC[C@H](NC(=O)[C@H](CCCCN)NC(=O)[C@H](Cc1c[nH]cn1)NC(=O)[C@H](CCCNC(=N)N)NC(=O)[C@H](CO)NC(=O)[C@@H](NC(=O)[C@H](CO)NC(=O)[C@H](CCC(N)=O)NC(=O)CNC(=O)[C@H](CCCCN)NC(=O)[C@@H](N)CCCCN)[C@@H](C)O)C(=O)N[C@@H](CC(C)C)C(=O)N[C@@H](CCCNC(=N)N)C(=O)N[C@@H](Cc1ccccc1)C(=O)N[C@@H](CCCCN)C(=O)N[C@H](C(=O)N[C@@H](CCC(=O)O)C(=O)NCC(=O)O)[C@@H](C)O | NAD-dependent protein deacetylase (cobB, Thermotoga maritima, UniProt Q9WYW0) | acetylated p53 peptide binding, intrinsic tyrosine fluorescence | pH 9.2, target 0.4 µM | 28.2 µM |
| CC[C@H](C)[C@H](NC(=O)[C@H](CS)NC(=O)[C@H](CCC(N)=O)NC(=O)[C@H](CC(C)C)NC(=O)[C@H](CCCCN)NC(=O)[C@H](CCCNC(=N)N)NC(=O)[C@H](C)NC(=O)[C@@H](NC(=O)[C@H](CCC(N)=O)NC(=O)[C@@H](NC(=O)[C@H](CCC(=O)O)NC(=O)[C@H](C)NC(=O)[C@H](CCC(N)=O)NC(=O)[C@@H](N)Cc1c[nH]cn1)C(C)C)[C@@H](C)CC)C(=O)N[C@@H](C)C(=O)N[C@@H](CC(=O)O)C(=O)N[C@@H](CCC(N)=O)C(=O)N[C@@H](Cc1ccccc1)C(=O)N[C@@H](Cc1c[nH]cn1)C(=O)N[C@@H](CCCNC(=N)N)C(=O)N[C@@H](CC(C)C)C(=O)N[C@@H](Cc1c[nH]cn1)C(=O)N[C@H](C(=O)N[C@@H](CCC(N)=O)C(=O)N[C@@H](CCC(N)=O)C(=O)O)C(C)C | BCL2 (Homo sapiens, UniProt P10415, Y108A) | fluorescence polarization | fluorescently labelled compound | > 100 µM |
| O=C(Nc1cccc(-c2nn[nH]n2)c1)c1cc(-c2cc[nH]n2)cc(C(F)(F)F)c1 | Beta-lactamase CTX-M-27 | surface plasmon resonance | 25 °C | 1.95 ± 0.07 µM |
| C=CC[C@H]1OC(=O)CCNC(=O)[C@H](C)N(C)C(=O)[C@H]([C@@H](C)CC)N(C)C(=O)[C@H]([C@@H](C)CC)NC(=O)[C@@H]2[C@@H](C)CCN2C1=O | Platelet-derived growth factor receptor beta, extracellular domain (PDGFRB, Homo sapiens, UniProt P09619, F136A/F138A) | binding, surface plasmon resonance | F136A and F138A mutant | 99.5 µM |
| CC(C)[C@H](NC(=O)[C@H](CCCNC(=N)N)NC(=O)[C@@H]1CCCN1C(=O)CNC(=O)[C@H](Cc1ccc(O)cc1)NC(=O)[C@@H](NC(=O)[C@H](C)NC(=O)[C@@H](NC(=O)CNC(=O)[C@H](CC(=O)O)NC(=O)[C@H](C)NC(=O)[C@H](Cc1c[nH]cn1)NC(=O)[C@@H](NC(=O)[C@@H](NC(=O)[C@@H](NC(=O)[C@H](CC(N)=O)NC(=O)[C@H](Cc1ccc(O)cc1)NC(=O)[C@H](C)NC(=O)[C@H](CC(N)=O)NC(=O)[C@@H](NC(=O)[C@H](CCCCN)NC(=O)[C@H](CO)NC(=O)[C@@H]1CCCN1C(=O)[C@H](CCCCN)NC(=O)[C@@H](N)CCCCN)[C@@H](C)O)C(C)C)[C@@H](C)O)[C@@H](C)O)[C@@H](C)O)[C@@H](C)O)C(=O)N[C@H](C(=O)N[C@@H](CCCCN)C(=O)O)[C@@H](C)O | FGA/FGB/FGG, D fragment (Homo sapiens, UniProt P02671+P02675+P02679, del433-453) | isothermal titration calorimetry | pH 7.4, 27 °C | 0.168 ± 0.0365 µM |
| O=C(O)CCc1c[nH]c2ccccc12 | txtE (Streptomyces scabiei, UniProt C9ZDC6) | binding | pH 8 | ~11 µM and 11 µM |

A few entries again:
| SMILES | target | test | conditions | Kd |
| --- | --- | --- | --- | --- |
| CC(C)[C@H](NC(=O)[C@H](CCCNC(=N)N)NC(=O)[C@@H]1CCCN1C(=O)CNC(=O)[C@H](Cc1ccc(O)cc1)NC(=O)[C@@H](NC(=O)[C@H](C)NC(=O)[C@@H](NC(=O)CNC(=O)[C@H](CC(=O)O)NC(=O)[C@H](C)NC(=O)[C@H](Cc1c[nH]cn1)NC(=O)[C@@H](NC(=O)[C@@H](NC(=O)[C@@H](NC(=O)[C@H](CC(N)=O)NC(=O)[C@H](Cc1ccc(O)cc1)NC(=O)[C@H](C)NC(=O)[C@H](CC(N)=O)NC(=O)[C@@H](NC(=O)[C@H](CCCCN)NC(=O)[C@H](CO)NC(=O)[C@@H]1CCCN1C(=O)[C@H](CCCCN)NC(=O)[C@@H](N)CCCCN)[C@@H](C)O)C(C)C)[C@@H](C)O)[C@@H](C)O)[C@@H](C)O)[C@@H](C)O)C(=O)N[C@H](C(=O)N[C@@H](CCCCN)C(=O)O)[C@@H](C)O | FGA/FGB/FGG, D fragment (Homo sapiens, UniProt P02671+P02675+P02679, del433-453) | isothermal titration calorimetry | pH 7.4, 27 °C | 0.168 ± 0.0365 µM |
| O=C(O)CCc1c[nH]c2ccccc12 | txtE (Streptomyces scabiei, UniProt C9ZDC6) | binding | pH 8 | ~11 µM and 11 µM |
